Measurements from different studies.
Compare with care: the assays were run in different laboratories.
Target: Serine/threonine-protein kinase PLK1 (PLK1, Homo sapiens, UniProt P53350)
UniProt P53350, sequence (whole entry, looked up): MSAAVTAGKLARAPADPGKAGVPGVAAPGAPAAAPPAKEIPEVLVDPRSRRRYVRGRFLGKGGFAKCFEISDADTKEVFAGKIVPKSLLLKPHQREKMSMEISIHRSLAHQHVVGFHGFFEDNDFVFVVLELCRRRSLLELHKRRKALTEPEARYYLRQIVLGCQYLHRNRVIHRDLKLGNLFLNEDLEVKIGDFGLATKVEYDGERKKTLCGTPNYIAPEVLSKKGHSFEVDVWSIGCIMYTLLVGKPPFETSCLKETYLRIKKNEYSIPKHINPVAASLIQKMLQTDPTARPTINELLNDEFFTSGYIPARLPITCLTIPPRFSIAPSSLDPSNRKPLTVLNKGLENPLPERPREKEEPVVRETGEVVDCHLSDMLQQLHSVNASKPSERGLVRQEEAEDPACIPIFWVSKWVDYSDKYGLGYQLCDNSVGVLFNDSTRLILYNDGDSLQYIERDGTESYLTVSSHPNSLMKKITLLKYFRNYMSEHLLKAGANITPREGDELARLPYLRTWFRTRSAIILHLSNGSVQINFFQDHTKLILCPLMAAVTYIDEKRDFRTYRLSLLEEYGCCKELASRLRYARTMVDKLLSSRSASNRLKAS

| SMILES | test | setting | how to read | endpoint | value |
| --- | --- | --- | --- | --- | --- |
| C[C@H](NCc1ccc(-c2ccc(C(F)(F)F)cc2)cc1)C(N)=O | cell-free assay, competition with immobilised ligand | 1 µM | – | inhibition | 11% |
| Cc1cccc(-c2ccc3nc(NC(=O)C4CCCCC4)nn3c2)c1 | enzyme activity | 10 µM | – | remaining activity | 83% |
| CS(C)(=O)=Nc1ccc(-c2ccc(-c3nc4cc(O[C@@H]5CO[C@H]6[C@@H]5OC[C@H]6O)[nH]c4cc3F)cc2)cc1 | enzyme activity, inhibitor | 10 µM | – | inhibition | 8% |
| O=C1NC(=O)c2c1c1cc(F)c[n+]3c1c1c2c2cc(O)ccc2[n]1[Ru-4]312([N]=C=S)[S+]3CC[S+]1CC[S+]2CC3 (stereo not drawn) | enzyme activity | 100 nM, human enzyme, added: 10 µM ATP | reference: untreated | remaining activity | 97% |
| Nc1ccc(/C=C/C(=O)N2CCc3c(oc4c(-c5ccc(F)cc5)cc(-c5ccc(C(=O)N6CCC(F)(F)CC6)cn5)cc34)C2)cn1 | binding, competition with immobilised ligand | 1 µM | – | remaining binding | 100% |
| Cc1cccc(-c2ccc3nc(NC(=O)C4CCCO4)nn3c2)c1 (stereo not drawn) | enzyme activity | 10 µM | – | remaining activity | 56% |
| CN(C)[C@H]1C[C@@]23CC[C@@]4(O2)C(=CC[C@]2(C)[C@@H](c5ccc6ccncc6c5)CC[C@H]24)C=C3[C@@H](O)[C@@H]1O | ATP probe labelling, inhibitor, KiNativ profiling | 1 µM | – | inhibition | -9.5% |
| CC(C)[C@H]1NC(=O)C[C@H]2/C=C/CCSSC[C@@H](NC1=O)C(=O)N[C@H](Cc1cccc3ccccc13)C(=O)NCC(=O)O2 | enzyme activity, inhibitor | 10 µM | – | inhibition | -6.6% |
| CCOC(=O)[C@@H]1Cc2c(cc([N+](=O)[O-])cc2[N+](=O)[O-])[C@H](O)[C@]12C(=O)Nc1ccc(Br)cc12 | binding, competition with immobilised ligand | 0.1 µM | – | remaining binding | 69% |

For quick reference, copied from above:
| SMILES | test | setting | how to read | endpoint | value |
| --- | --- | --- | --- | --- | --- |
| O=C1NC(=O)c2c1c1cc(F)c[n+]3c1c1c2c2cc(O)ccc2[n]1[Ru-4]312([N]=C=S)[S+]3CC[S+]1CC[S+]2CC3 (stereo not drawn) | enzyme activity | 100 nM, human enzyme, added: 10 µM ATP | reference: untreated | remaining activity | 97% |
